Measurements of several laboratories.
Numbered parts are unrelated; each lists some results of a single study.

Sample 1 — technique: universal PBM; molecule type: double-stranded DNA, one strand shown; sample: in vitro; concentration: not given; reading: higher = stronger binding
Target: Sal-like protein 4, full length isoform B (SALL4, Homo sapiens, UniProt Q9UJQ4-2, residues 1-616)
Notes: 8-mer, flanks averaged, mean of replicates
Residues (chain): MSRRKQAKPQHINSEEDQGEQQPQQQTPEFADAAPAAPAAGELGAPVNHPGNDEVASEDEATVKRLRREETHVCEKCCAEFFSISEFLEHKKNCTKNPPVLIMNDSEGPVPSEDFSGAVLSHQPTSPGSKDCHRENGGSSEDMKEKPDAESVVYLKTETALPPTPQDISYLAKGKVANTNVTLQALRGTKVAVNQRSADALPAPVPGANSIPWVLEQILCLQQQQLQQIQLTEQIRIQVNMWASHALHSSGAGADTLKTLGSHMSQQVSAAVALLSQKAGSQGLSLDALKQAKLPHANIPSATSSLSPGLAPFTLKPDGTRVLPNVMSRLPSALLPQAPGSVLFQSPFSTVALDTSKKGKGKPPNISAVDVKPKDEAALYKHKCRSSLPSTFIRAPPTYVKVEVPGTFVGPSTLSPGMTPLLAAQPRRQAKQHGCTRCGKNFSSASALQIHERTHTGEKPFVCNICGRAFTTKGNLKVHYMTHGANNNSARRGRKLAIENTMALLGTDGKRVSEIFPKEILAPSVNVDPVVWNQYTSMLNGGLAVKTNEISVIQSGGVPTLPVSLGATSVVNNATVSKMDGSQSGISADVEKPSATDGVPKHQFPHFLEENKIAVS
| Strand | E-score |
| --- | --- |
| ATTGAGGG | -0.0854 |
| AACACGAT | 0.137 |
| ATGTGGTC | -0.0181 |
| GAGGAAAA | 0.154 |
| CCGGCTAG | -0.309 |

Sample 2 — technique: protein binding microarray; molecule type: double-stranded DNA, one strand shown; sample: in vitro; concentration: not given; reference: not given; reading: higher = stronger binding
Target: Histone acetyltransferase KAT6A, winged helix 1, GST fusion (KAT6A, Homo sapiens, UniProt Q92794, residues 1-85)
Notes: 8-mer, flanks averaged, mean of 2 arrays, mostly near background
Construct (chain): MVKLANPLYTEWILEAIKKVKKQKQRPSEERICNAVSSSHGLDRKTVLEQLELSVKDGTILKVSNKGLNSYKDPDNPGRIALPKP
| Strand | E-score |
| --- | --- |
| CTCGGGGC | 0.169 |
| ACCCAAGA | -0.272 |
| GGGGGAAC | 0.0578 |
| TCATCCAA | -0.236 |
| ACAACGTC | -0.0316 |

Sample 3 — technique: protein-binding microarray; molecule type: double-stranded DNA, one strand shown; sample: in vitro; concentration: 940 nM top; notes: 60-bp whole probe; together with: salmon DNA 0.4 mg/ml; reference: random background probes; reading: higher = stronger binding
Target: Interferon regulatory factor 5, full length, phosphomimetic (IRF5, Homo sapiens, UniProt Q13568-2, residues 1-514, S451D/S453D/S456D/S462D)
All sequences stand within: GCCTAGCAC … GTGCTAGGTCTTGATTCGCTTGACGCTGCTG
| Strand | fitted relative affinity [z-score] |
| --- | --- |
| TTAGGACTGAGTCTCGATTA | 2.36 |
| TTAGGACTGGGTTTCTGTTA | 2.04 |
| GACGGACTCGGTATCGGGAC | 1.17 |
| TCAATTTTTTTTTTCATACT | 1.58 |
| GACGATTTCAGTATCGGGAC | 2.55 |
| CTCTGCTTGCGTCTGGGTGT | -0.588 |

Further values, each from its own experiment
| Substance | target | assay | system | conditions | how to read | measurement | result |
| --- | --- | --- | --- | --- | --- | --- | --- |
| PhoQ, residues 284 288 289 292 302 303 QWQEDG | PhoP, residues 12 14 15 18 19 AWHSL (Escherichia coli, UniProt P23836) | Sort-seq, measured: YFP reporter | E. coli | PhoQ-PhoP variant library, together with: 10 µM Mg2+ | reference: high Mg2+ state, higher = stronger signaling | fold induction | 3.47 |

Repeated from above (sample 1):
| Strand | E-score |
| --- | --- |
| GAGGAAAA | 0.154 |
